Assay results of several laboratories.
Parts stem from different laboratories: compare values within a part only.

Set 1 — technique: Sort-seq; refers to: YFP reporter; sample: E. coli; setting: PhoQ-PhoP variant library; together with: 10 µM Mg2+; relative to: high Mg2+ state; reading: higher = stronger signaling
Molecule: PhoQ, residues 284 288 289 292 302 303 TYGVAM
The fold induction was 1.25 (PhoP, residues 12 14 15 18 19 SHWTV (Escherichia coli, UniProt P23836)).
The fold induction was 11.7 (PhoP, residues 12 14 15 18 19 STHWV (Escherichia coli, UniProt P23836)).
For PhoP, residues 12 14 15 18 19 QYCSL (Escherichia coli, UniProt P23836): fold induction read 1.74.

Set 2 — technique: competition protein-binding microarray; form: double-stranded DNA, one strand shown; sample: in vitro; tested at: 2 µM; together with: Pho4 competitor, 0.05 µM; reading: higher = stronger binding
Target: Centromere-binding protein 1, full length, His-tagged (CBF1, Saccharomyces cerevisiae, UniProt P17106, residues 1-351)
Sequence of UniProt P17106 (whole entry, looked up): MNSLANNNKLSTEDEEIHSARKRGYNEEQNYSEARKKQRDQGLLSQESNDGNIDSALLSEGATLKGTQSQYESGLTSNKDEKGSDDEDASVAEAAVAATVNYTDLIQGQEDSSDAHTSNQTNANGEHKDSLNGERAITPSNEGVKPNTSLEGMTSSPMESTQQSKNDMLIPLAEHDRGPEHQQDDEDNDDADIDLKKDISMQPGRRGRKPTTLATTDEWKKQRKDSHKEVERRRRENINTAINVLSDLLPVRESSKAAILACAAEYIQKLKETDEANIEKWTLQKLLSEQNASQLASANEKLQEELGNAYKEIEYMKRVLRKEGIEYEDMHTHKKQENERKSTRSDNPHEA
Setting: whole 60-bp probe, lowest competitor level
The fluorescence intensity of `AACTTTGAGCTTCCTCACGTGGAACATAAGATAGATGTCTTGATTCGCTTGACGCTGCTG` is reported as 809 a.u.
`AAATTACTAAGTTTTCACGTGAACTACCCCGTATGAGTCTTGATTCGCTTGACGCTGCTG` gave a fluorescence intensity of 875 a.u.
`ATGGGTCTGTTTACTCATGTGACGCTCTATGCGCTGGTCTTGATTCGCTTGACGCTGCTG` has a fluorescence intensity of 357 a.u.
The fluorescence intensity of `CTTCTGTAAATTTTTCACGTGAAGTGAAGCGCCCCGGTCTTGATTCGCTTGACGCTGCTG` is reported as 604 a.u.

Set 3 — technique: protein binding microarray; form: double-stranded DNA, one strand shown; sample: in vitro; tested at: not given; relative to: not given; reading: higher = stronger binding
Target: Histone acetyltransferase KAT6A, both winged helices, GST fusion (KAT6A, Homo sapiens, UniProt Q92794, residues 1-181)
Setting: 8-mer, flanks averaged, mean of 2 arrays, mostly near background
Target sequence (chain): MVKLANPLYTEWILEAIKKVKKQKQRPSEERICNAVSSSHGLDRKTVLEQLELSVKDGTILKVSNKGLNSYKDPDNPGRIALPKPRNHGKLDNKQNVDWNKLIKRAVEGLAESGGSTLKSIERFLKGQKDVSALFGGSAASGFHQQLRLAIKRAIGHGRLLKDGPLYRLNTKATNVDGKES
`GGCGCCTA` gave an E-score of 0.265.
`AAAATAGA` gave an E-score of -0.0672.
For `CCGAACGA`, the E-score was 0.0508.
The E-score of `AAGGTAAT` is reported as -0.111.
For `AAATGTAG`, the E-score was -0.168.
For `AAAGCACC`, the E-score was -0.031.
For `CGATCTGC`, the E-score was 0.059.

Set 4 — technique: protein-binding microarray; form: double-stranded DNA, one strand shown; sample: in vitro; tested at: 250 nM; setting: 60-bp whole probe; together with: salmon DNA 0.4 mg/ml; relative to: random background probes; reading: higher = stronger binding; constant ends, left off below: GCCTAGCAC … GTCTTGATTCGCTTGACGCTGCTG
Target: Interferon regulatory factor 5, full length, phosphomimetic (IRF5, Homo sapiens, UniProt Q13568-2, residues 1-514, K96S/S451D/S453D/S456D/S462D)
`TTAGAACTGGGTCTCGATTAGTGCTAG` gave a log fluorescence of 0.094 z-score.
The log fluorescence of `GACGATTTCAGTCTCTAGACGTGCTAG` is reported as 1.29 z-score.
With `GACTGACTGGGGTTTCGGGACGTGCTA` the log fluorescence was 1.19 z-score.
With `GACGGTATCGACGTTCGGGACGTGCTA` the log fluorescence was 1.51 z-score.
`GACGGTTTGGACACTGGGGACGTGCTA` has a log fluorescence of -0.269 z-score.
`TCAACTTTCTACTTCTCACTGTGCTAG` gave a log fluorescence of 2.84 z-score.
For `TTATGACTGGGACTGGGTTAGTGCTAG`, the log fluorescence was -0.045 z-score.

Repeated from above (set 1):
For PhoP, residues 12 14 15 18 19 QYCSL (Escherichia coli, UniProt P23836): fold induction read 1.74.
